Results collected from several papers.
Protocols differ between the studies behind these lines.

`O=C(O)COc1ccc(Br)cc1C=NNC(=O)Cc1ccccc1` (mixture of isomers) has a survival of 100% (male mice, pilocarpine-induced seizures; oral, 20 mg/kg, 24 h, dosed 30 min before pilocarpine, added: pilocarpine 300 mg/kg i.p.).
The IC50 of `N=C(N)N[C@@H]1C[C@@H](C(=O)N[C@@H](Cc2ccc(O)cc2)C(N)=O)N(C(=O)CN(CCNC(=O)[C@H](CCCCNC(=O)c2cnccn2)NC(=O)[C@H](CCCCNC(=O)[C@H]2C[C@@H](N)CN2C(=O)CN(CCNC(=O)CN(CCN)C(=O)Cn2cnc3c(=O)[nH]c(N)nc32)C(=O)Cn2cnc3c(=O)[nH]c(N)nc32)NC(=O)[C@H]2C[C@@H](N)CN2C(=O)CN(CCNC(=O)CN(CCN)C(=O)Cn2cnc3c(=O)[nH]c(N)nc32)C(=O)Cn2cnc3c(=O)[nH]c(N)nc32)C(=O)Cn2cnc3c(=O)[nH]c(N)nc32)C1` is reported as 15.4 µM (HEK-293T transfected GagPol-RRE reporter; Rev-RRE nuclear export reporter, inhibitor, item: p24; 48 h).
Under acute toxicity, `C=CCCCC(C)(NC(=O)[C@H](Cc1c[nH]cn1)NC(=O)[C@@H](N)CC(=O)O)C(=O)N[C@@H](CC(N)=O)C(=O)N1CCC[C@H]1C(=O)N[C@@H](CCC(N)=O)C(=O)N[C@H](C(=O)N[C@@H](CCCNC(=N)N)C(N)=O)[C@@H](C)CC` (stereo partly shown) is recorded as “not toxic” (Kunming mouse; subcutaneous, 0.5 to 62.5 mg/kg, 14 days).
`CC(C)C[C@H](NC(=O)[C@@H](NC(=O)[C@H](CCONC(=N)N)NC(=O)OCc1ccccc1)C1CCCCC1)[C@@H](O)CC(=O)NCCc1ccccc1` has an EC50 of 110 nM (Plasmodium falciparum; parasite growth, LDH; 3D7 after resistance selection).

A few entries again:
`CC(C)C[C@H](NC(=O)[C@@H](NC(=O)[C@H](CCONC(=N)N)NC(=O)OCc1ccccc1)C1CCCCC1)[C@@H](O)CC(=O)NCCc1ccccc1` has an EC50 of 110 nM (Plasmodium falciparum; parasite growth, LDH; 3D7 after resistance selection).
